Assay results from different studies.
Lines come from different studies, so protocols differ.

Structure (SMILES)	assay	system	setting	scale	Tmax [h]
CCn1cc(C(=O)N2CCOCC2)c(=O)c2cc(NC3Cc4ccccc4C3)cnc21		human, fasted	oral suspension, 5 mg single dose, median		1
O=C(O)CCC(=O)O.[2H]C([2H])([2H])Oc1cc(C)c2[nH]ccc2c1CN1CC[C@@H](C2CC2)C[C@H]1c1ccc(C(=O)O)cc1		human, plasma	300 mg once daily, day 10, multiple ascending dose, median		3
O=C(O)C[C@H](O)C[C@H](O)/C=C/c1c(C2CC2)nc2ccccc2c1-c1ccc(F)cc1		FVB wild-type mouse, plasma	oral, 5 mg/kg		0.8
CN1CCC[C@H](CN2c3ccccc3Sc3ccccc32)C1.Cl		fasted female ICR mouse, lymph node	oral, 16 mg/kg		1
Cl.[2H]C([2H])([2H])CC(=O)c1cnc(NC(=O)C2CC2)cc1Nc1cccc(-c2ncn(C([2H])([2H])[2H])n2)c1OC		human, fasted, multiple dose	oral, 10 mg once daily, tablet, day 1, median		2.02
CN1C(=O)[C@@H](NC(=O)c2nnc(Cc3ccccc3)[nH]2)COc2cccnc21		human, plasma	oral, 200 mg once daily, day 14, median		3.52
NC1(C(=O)N[C@@H](CCO)c2ccc(Cl)cc2)CCN(c2nc[nH]c3nccc2-3)CC1	LC-MS/MS, non-compartmental	human patients, plasma	160/400 mg cohort, cycle 2, geometric mean, added: enzalutamide		2
CO[C@H]1C[C@@H]2CC[C@@H](C)[C@@](O)(O2)C(=O)C(=O)N2CCCC[C@H]2C(=O)O[C@H]([C@H](C)C[C@@H]2CC[C@@H](OC(=O)NCCOCCOCCOCCOCCOCCOCCOCCOCCC(=O)N3CCc4cc(Cn5nc(-c6ccc7oc(N)nc7c6)c6c(N)ncnc65)ccc4C3)[C@H](OC)C2)C[C@@H](O)[C@H](C)/C=C(\C)[C@@H](O)[C@@H](OC)C(=O)[C@H](C)C[C@H](C)/C=C/C=C/C=C/1C		human, plasma	intravenous, 1.6 mg, cycle 1 day 1, arithmetic mean		0.75
CCCCC1=NC2(CCCC2)C(=O)N1Cc1ccc(-c2ccccc2S(=O)(=O)Nc2noc(C)c2C)c(COCC)c1		healthy adult volunteers, plasma	oral, 100 mg, 14 days repeated dosing, fasted, crushed tablet		4.5
C=CCn1c(=O)c2cnc(Nc3ccc(N4CCN(C)CC4)cc3)nc2n1-c1cccc(C(C)(C)O)n1		human	oral, 125 mg twice daily, monotherapy lead-in, -5 days	median	2

Excerpt of the above:
Structure (SMILES)	assay	system	setting	scale	Tmax [h]
O=C(O)C[C@H](O)C[C@H](O)/C=C/c1c(C2CC2)nc2ccccc2c1-c1ccc(F)cc1		FVB wild-type mouse, plasma	oral, 5 mg/kg		0.8
